Measured values of several laboratories.
Every numbered part comes from another study and shows a few of its results, in no order.
Sequence of UniProt P10721 (whole entry, unmodified, looked up): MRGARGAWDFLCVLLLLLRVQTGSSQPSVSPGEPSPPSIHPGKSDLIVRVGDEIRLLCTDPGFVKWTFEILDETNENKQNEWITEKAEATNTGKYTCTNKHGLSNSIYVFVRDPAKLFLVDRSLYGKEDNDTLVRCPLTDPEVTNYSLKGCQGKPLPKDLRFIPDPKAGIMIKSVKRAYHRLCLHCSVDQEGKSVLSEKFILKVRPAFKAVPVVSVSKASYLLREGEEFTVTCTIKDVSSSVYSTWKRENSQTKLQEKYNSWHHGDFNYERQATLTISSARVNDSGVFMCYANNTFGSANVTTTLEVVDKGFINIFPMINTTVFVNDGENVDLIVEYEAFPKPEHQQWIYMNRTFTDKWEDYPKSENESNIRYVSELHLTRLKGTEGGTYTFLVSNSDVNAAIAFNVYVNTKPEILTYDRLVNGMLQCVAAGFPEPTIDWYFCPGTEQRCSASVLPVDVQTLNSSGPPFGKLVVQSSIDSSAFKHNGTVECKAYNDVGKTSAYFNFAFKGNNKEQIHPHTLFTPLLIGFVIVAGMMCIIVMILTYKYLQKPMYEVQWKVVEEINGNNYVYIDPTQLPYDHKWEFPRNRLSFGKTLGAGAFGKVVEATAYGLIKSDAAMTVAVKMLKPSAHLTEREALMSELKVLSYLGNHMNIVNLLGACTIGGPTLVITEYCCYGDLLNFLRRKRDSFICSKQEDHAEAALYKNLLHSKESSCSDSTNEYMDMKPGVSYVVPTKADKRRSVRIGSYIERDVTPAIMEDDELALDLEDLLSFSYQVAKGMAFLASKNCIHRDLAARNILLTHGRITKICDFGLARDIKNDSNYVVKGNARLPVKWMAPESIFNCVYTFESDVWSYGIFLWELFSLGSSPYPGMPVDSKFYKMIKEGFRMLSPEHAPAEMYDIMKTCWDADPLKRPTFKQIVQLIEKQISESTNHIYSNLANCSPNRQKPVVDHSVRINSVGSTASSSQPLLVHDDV
Sequence of UniProt Q8NE63 (whole entry, looked up): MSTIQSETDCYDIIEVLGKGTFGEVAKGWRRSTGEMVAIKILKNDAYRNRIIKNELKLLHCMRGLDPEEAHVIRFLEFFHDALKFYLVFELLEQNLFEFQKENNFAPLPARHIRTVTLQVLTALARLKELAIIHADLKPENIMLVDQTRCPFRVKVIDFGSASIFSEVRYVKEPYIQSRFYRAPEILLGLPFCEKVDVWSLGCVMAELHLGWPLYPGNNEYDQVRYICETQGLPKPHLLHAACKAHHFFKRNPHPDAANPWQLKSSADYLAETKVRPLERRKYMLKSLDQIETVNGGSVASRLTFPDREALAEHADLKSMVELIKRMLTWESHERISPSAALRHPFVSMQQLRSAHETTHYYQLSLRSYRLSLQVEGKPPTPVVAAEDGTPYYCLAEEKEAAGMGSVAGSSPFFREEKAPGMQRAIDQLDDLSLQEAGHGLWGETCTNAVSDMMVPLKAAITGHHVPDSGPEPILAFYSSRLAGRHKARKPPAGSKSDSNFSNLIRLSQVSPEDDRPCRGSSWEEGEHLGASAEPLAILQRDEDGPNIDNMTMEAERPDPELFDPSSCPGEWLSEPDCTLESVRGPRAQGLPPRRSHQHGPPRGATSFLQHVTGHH
Sequence of UniProt P00519 (whole entry, looked up): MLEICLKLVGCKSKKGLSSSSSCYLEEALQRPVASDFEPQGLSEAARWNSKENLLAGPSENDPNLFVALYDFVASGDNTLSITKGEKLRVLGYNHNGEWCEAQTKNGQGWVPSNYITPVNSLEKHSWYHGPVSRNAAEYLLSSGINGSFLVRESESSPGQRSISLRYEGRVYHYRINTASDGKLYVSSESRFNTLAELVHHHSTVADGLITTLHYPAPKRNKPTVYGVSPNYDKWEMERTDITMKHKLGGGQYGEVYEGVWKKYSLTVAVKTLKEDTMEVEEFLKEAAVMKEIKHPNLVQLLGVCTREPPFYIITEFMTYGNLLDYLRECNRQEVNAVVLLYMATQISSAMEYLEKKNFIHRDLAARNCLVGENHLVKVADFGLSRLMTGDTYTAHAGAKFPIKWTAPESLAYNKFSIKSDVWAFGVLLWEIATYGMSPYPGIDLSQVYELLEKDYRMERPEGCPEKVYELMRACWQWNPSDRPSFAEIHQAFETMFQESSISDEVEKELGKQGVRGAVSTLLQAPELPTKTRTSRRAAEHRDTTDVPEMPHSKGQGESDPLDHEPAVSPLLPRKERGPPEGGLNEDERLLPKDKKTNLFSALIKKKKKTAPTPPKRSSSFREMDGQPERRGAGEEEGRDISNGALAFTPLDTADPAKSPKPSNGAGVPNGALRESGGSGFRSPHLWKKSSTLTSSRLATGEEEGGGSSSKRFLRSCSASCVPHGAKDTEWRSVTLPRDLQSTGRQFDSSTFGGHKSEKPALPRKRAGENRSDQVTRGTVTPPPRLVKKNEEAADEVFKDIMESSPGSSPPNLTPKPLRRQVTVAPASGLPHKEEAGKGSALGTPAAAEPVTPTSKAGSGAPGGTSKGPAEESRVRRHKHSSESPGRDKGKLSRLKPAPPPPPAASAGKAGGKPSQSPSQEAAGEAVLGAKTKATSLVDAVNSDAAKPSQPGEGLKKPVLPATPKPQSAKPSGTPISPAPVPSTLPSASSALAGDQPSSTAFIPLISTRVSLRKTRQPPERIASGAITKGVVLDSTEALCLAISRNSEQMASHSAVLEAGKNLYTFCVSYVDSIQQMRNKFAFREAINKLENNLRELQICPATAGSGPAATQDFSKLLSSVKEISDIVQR
Sequence of UniProt O15354 (whole entry, looked up): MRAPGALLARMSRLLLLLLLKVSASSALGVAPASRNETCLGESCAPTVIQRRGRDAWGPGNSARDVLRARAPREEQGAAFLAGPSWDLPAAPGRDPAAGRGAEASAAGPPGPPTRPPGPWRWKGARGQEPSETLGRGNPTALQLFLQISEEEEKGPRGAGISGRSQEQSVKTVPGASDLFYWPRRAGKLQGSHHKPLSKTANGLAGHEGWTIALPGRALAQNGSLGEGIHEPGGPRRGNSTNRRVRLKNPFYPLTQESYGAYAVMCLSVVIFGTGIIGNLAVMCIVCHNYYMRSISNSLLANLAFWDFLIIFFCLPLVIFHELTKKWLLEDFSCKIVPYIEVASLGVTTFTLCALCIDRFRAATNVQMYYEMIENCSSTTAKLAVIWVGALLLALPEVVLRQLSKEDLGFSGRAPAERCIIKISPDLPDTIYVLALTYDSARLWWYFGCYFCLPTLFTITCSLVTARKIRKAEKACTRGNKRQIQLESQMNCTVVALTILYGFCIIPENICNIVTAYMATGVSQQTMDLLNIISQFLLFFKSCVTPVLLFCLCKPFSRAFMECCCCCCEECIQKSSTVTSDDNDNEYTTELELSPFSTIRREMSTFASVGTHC
Sequence of UniProt Q16816 (whole entry, looked up): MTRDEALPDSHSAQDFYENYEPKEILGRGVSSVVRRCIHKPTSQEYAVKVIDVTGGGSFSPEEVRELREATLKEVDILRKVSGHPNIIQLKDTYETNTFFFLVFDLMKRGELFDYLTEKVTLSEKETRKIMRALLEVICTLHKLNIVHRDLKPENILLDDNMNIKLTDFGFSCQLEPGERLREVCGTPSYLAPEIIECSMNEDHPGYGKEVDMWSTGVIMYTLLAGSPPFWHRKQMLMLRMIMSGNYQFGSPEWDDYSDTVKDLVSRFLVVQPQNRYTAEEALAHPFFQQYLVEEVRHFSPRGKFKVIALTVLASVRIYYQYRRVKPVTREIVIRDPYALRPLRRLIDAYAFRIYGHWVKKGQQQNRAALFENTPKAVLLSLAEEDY
Sequence of UniProt Q96PF2 (whole entry, looked up): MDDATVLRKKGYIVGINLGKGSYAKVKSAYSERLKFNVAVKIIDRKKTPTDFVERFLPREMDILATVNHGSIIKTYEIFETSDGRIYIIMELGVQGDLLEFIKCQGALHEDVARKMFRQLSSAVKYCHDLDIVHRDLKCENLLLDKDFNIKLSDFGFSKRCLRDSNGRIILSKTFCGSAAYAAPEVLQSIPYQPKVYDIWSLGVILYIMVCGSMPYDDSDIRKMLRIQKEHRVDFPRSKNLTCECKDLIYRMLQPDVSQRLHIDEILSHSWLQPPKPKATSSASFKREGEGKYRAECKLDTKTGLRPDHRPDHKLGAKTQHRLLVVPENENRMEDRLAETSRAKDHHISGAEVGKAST
Sequence of UniProt P51451 (whole entry, looked up): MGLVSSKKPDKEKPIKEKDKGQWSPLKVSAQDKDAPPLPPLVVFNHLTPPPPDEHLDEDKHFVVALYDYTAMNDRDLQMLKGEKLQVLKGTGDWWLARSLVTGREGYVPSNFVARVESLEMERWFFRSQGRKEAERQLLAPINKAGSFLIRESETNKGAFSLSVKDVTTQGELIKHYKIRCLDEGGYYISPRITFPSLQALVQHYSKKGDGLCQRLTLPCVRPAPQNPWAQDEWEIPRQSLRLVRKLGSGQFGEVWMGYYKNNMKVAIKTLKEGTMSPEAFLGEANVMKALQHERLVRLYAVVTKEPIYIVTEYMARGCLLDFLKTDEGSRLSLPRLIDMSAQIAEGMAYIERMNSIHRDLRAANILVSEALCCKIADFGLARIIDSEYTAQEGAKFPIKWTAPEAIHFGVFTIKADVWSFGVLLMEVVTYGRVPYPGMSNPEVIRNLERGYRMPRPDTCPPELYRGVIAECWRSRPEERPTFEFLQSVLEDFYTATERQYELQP
Sequence of UniProt P32249 (whole entry, looked up): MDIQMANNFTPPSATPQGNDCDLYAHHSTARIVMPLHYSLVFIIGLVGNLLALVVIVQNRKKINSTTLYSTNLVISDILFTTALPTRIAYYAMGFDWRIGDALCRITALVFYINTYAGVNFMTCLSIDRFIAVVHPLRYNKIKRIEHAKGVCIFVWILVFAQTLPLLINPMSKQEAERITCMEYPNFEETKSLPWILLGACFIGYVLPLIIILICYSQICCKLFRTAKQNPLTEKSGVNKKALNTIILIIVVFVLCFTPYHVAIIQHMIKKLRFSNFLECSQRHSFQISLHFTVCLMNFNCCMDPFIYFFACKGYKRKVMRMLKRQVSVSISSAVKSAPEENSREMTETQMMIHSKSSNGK

Set 1
SMILES: COc1ccc2[nH]c3c4[nH]c5ccc(OC)cc5c4c4c(c3c2c1)C(=O)NC4=O
Effect on: binding
Concentration: 1 µM
target | test | remaining binding
CDPK1 (Plasmodium falciparum, UniProt P62344) | – | 29%
PHKG2 (Homo sapiens, UniProt P15735) | – | 52%
MELK (Homo sapiens, UniProt Q14680) | – | 43%
TTK (Homo sapiens, UniProt P33981) | competition with immobilised ligand | 50%
EGFR (Homo sapiens, UniProt P00533, L858R/T790M) | – | 35%
DCLK2 (Homo sapiens, UniProt Q8N568) | – | 90%
MYLK2 (Homo sapiens, UniProt Q9H1R3) | competition with immobilised ligand | 82%
CDK13 (Homo sapiens, UniProt Q14004) | – | 100%
PRKCE (Homo sapiens, UniProt Q02156) | – | 75%
MAP3K9 (Homo sapiens, UniProt P80192) | – | 2.2%
BMPR1A (Homo sapiens, UniProt P36894) | competition with immobilised ligand | 100%
ALK (Homo sapiens, UniProt Q9UM73, C1156Y) | – | 25%
MAP4K2 (Homo sapiens, UniProt Q12851) | competition with immobilised ligand | 75%
TGFBR2 (Homo sapiens, UniProt P37173) | competition with immobilised ligand | 100%
STK10 (Homo sapiens, UniProt O94804) | competition with immobilised ligand | 88%
NEK11 (Homo sapiens, UniProt Q8NG66) | competition with immobilised ligand | 100%
SRPK1 (Homo sapiens, UniProt Q96SB4) | – | 86%
HIPK4 (Homo sapiens, UniProt Q8NE63) | competition with immobilised ligand | 70%
EPHB3 (Homo sapiens, UniProt P54753) | competition with immobilised ligand | 85%

Set 2
Structure (SMILES): CN([C@@H]1CCc2c(CC(=O)O)c3ccccc3n2C1)S(=O)(=O)c1ccc(F)cc1
Effect on: cell-free assay
Technique: competition with immobilised ligand
Concentration: 1 µM
target | remaining binding [%]
PIK3CA (Homo sapiens, UniProt P42336, H1047Y) | 97
PLK2 (Homo sapiens, UniProt Q9NYY3) | 92
CLK4 (Homo sapiens, UniProt Q9HAZ1) | 100
PRKCD (Homo sapiens, UniProt Q05655) | 100
Ribosomal protein S6 kinase alpha-2, C-terminal kinase domain (RPS6KA2, Homo sapiens, UniProt Q15349) | 100
SNRK (Homo sapiens, UniProt Q9NRH2) | 100
PIK3CD (Homo sapiens, UniProt O00329) | 95
KIT (Homo sapiens, UniProt P10721, L576P) | 100
NTRK2 (Homo sapiens, UniProt Q16620) | 100
CDKL1 (Homo sapiens, UniProt Q00532) | 100
KIT (Homo sapiens, UniProt P10721, D816V) | 100
EGFR (Homo sapiens, UniProt P00533, G719S) | 100
PIK3C2B (Homo sapiens, UniProt O00750) | 94
MAP4K5 (Homo sapiens, UniProt Q9Y4K4) | 100
CLK1 (Homo sapiens, UniProt P49759) | 100
NEK10 (Homo sapiens, UniProt Q6ZWH5) | 85
Tyrosine-protein kinase ABL1, non-phosphorylated (ABL1, Homo sapiens, UniProt P00519) | 100
LATS2 (Homo sapiens, UniProt Q9NRM7) | 100
BMX (Homo sapiens, UniProt P51813) | 100
EPHA5 (Homo sapiens, UniProt P54756) | 99
TNIK (Homo sapiens, UniProt Q9UKE5) | 79
MAP3K14 (Homo sapiens, UniProt Q99558) | 100
CIT (Homo sapiens, UniProt O14578) | 100
MYLK (Homo sapiens, UniProt Q15746) | 100
KIT (Homo sapiens, UniProt P10721, A829P) | 100

Set 3
SMILES: CCN(c1nc(N)c(C(=O)N=C(N)N)nc1Cl)C(C)C
Effect on: β-arrestin recruitment
Action: agonist
Technique: PRESTO-Tango
Concentration: 10 µM
Relative to: untreated
target | fold over basal
MC2R (Homo sapiens, UniProt Q01718) | 0.93
Probable G-protein coupled receptor 27 (Homo sapiens, UniProt Q9NS67) | 1.93
C5AR2 (Homo sapiens, UniProt Q9P296) | 0.94
RXFP3 (Homo sapiens, UniProt Q9NSD7) | 1.85
MRGPRX1 (Homo sapiens, UniProt Q96LB2) | 1.18
P2Y purinoceptor 13 (P2RY13, Homo sapiens, UniProt Q9BPV8) | 0.93
OXGR1 (Homo sapiens, UniProt Q96P68) | 0.91
HCAR2 (Homo sapiens, UniProt Q8TDS4) | 0.74 fold
Trace amine-associated receptor 8 (TAAR8, Homo sapiens, UniProt Q969N4) | 0.75 fold
NPSR1 (Homo sapiens, UniProt Q6W5P4) | 1.05
C-C chemokine receptor-like 2 (Homo sapiens, UniProt O00421) | 1.05
P2Y purinoceptor 2 (P2RY2, Homo sapiens, UniProt P41231) | 0.73
G-protein coupled receptor family C group 5 member D (GPRC5D, Homo sapiens, UniProt Q9NZD1) | 0.36
GPR37 (Homo sapiens, UniProt O15354) | 1.18
MRGPRD (Homo sapiens, UniProt Q8TDS7) | 0.9
GPR183 (Homo sapiens, UniProt P32249) | 0.92
HCAR1 (Homo sapiens, UniProt Q9BXC0) | 0.86 fold

Set 4
Compound: CCCC(=O)Oc1ccc2[nH]c(C(=O)c3cc4ccccc4[nH]3)cc2c1
Effect on: enzyme activity
Action: inhibitor
Concentration: 0.5 µM
Relative to: control
target | remaining activity
WNK3 (Homo sapiens, UniProt Q9BYP7) | 101%
MAPKAPK3 (Homo sapiens, UniProt Q16644) | 94.3%
PHKG1 (Homo sapiens, UniProt Q16816) | 93.7%
AXL (Homo sapiens, UniProt P30530) | 103%
Cyclin-dependent kinase 1, with cyclin B (CDK1, Homo sapiens, UniProt P06493) | 106%
Cyclin-dependent kinase 6, with cyclin D3 (CDK6, Homo sapiens, UniProt Q00534) | 92.5%
PRKACG (Homo sapiens, UniProt P22612) | 99.8%
CAMK2B (Homo sapiens, UniProt Q13554) | 90%
BLK (Homo sapiens, UniProt P51451) | 102%
Cyclin-dependent kinase 4, with cyclin D3 (CDK4, Homo sapiens, UniProt P11802) | 103%
PDPK1 (Homo sapiens, UniProt O15530) | 101%
HIPK2 (Homo sapiens, UniProt Q9H2X6) | 92.1%
RPS6KA6 (Homo sapiens, UniProt Q9UK32) | 95.4%
RPS6KA5 (Homo sapiens, UniProt O75582) | 95.3%
SRMS (Homo sapiens, UniProt Q9H3Y6) | 104%
MAP4K4 (Homo sapiens, UniProt O95819) | 97.3%
EPHA4 (Homo sapiens, UniProt P54764) | 99.3%
HIPK4 (Homo sapiens, UniProt Q8NE63) | 86.3%
ABL1 (Homo sapiens, UniProt P00519) | 100%
STK17A (Homo sapiens, UniProt Q9UEE5) | 90.9%
DYRK3 (Homo sapiens, UniProt O43781) | 92.6%
STK16 (Homo sapiens, UniProt O75716) | 100%
TSSK2 (Homo sapiens, UniProt Q96PF2) | 78%
EPHB1 (Homo sapiens, UniProt P54762) | 92.1%

For quick reference, copied from above (set 3):
target | fold over basal
MRGPRX1 (Homo sapiens, UniProt Q96LB2) | 1.18
P2Y purinoceptor 13 (P2RY13, Homo sapiens, UniProt Q9BPV8) | 0.93
OXGR1 (Homo sapiens, UniProt Q96P68) | 0.91
HCAR2 (Homo sapiens, UniProt Q8TDS4) | 0.74 fold
Trace amine-associated receptor 8 (TAAR8, Homo sapiens, UniProt Q969N4) | 0.75 fold
